Results collected from several papers.
Lines come from different studies, so protocols differ. Values joined by “and” are separate records of one study, mostly repeats; a detail may differ. ± gives the spread as reported.

The tissue uptake of `CCCC[C@H](NC(=O)CNC(=O)CNC(=O)[C@H](CCCCNC(=O)[C@H](CC(=O)O)NC(=O)C(C)c1ccc(CC(C)C)cc1)NC(=O)CN1CCN(CC(=O)O)CCN(CC(=O)O)CCN(CC(=O)O)CC1)C(=O)N[C@H]1CC(=O)NCCCC[C@@H](C(N)=O)NC(=O)[C@H](Cc2c[nH]c3ccccc23)NC(=O)[C@H](CCCNC(=N)N)NC(=O)[C@@H](Cc2ccccc2)NC(=O)[C@H](Cc2c[nH]cn2)NC1=O` (stereo partly drawn) [lutetium-177 labelled] is reported as 0.29 ± 0.05 %ID/g (C57 mice, tumour-bearing, muscle; 2 h).
`COc1ccc(Nc2nc(Nc3ccc(OCCOCCOCC[18F])cc3)ncc2Br)cc1` has a tissue uptake of 10.6 ± 0.61 %ID/g (ICR mice, S180 tumour-bearing, lung; intravenous, 370 kBq, 5 min).
With `CC(C)C[C@H](NC(=O)[C@@H](CCCCNC(=O)[C@@H](Cc1ccccc1)NC(=O)CCCCCCCNC(=O)CN1CCN(CC(=O)O)CCN(CC(=O)O)CCN(CC(=O)O)CC1)NC(=O)[C@H](Cc1ccc(O)cc1)NC(=O)[C@H](CO)NC(=O)[C@H](Cc1c[nH]c2ccccc12)NC(=O)[C@H](Cc1c[nH]cn1)NC(=O)[C@@H]1CCC(=O)N1)C(=O)N[C@@H](CCCNC(=N)N)C(=O)N1CCC[C@H]1C(=O)NCC(N)=O` [indium-111 labelled] the tissue uptake was 0.53 ± 0.11 %ID/g (biodistribution; male athymic nude mice, DU-145 prostate cancer xenograft, tumor; intravenous, 0.037 MBq, 2 h post-injection).
For `O=C(NCC1OC2CCC=CCCC2O1)c1ccc(COCCOCCOCC[18F])cc1` (stereo not drawn), the tissue uptake was 2.4 ± 0.6 %ID/g (healthy female BALB/c nude mice, spleen; intravenous, 7.4 MBq per mouse, 60 min).
For `N#C[C@@H]1CCCN1C(=O)CNC(=O)c1ccnc2ccc(OCCCN3CCN(C(=O)CCc4ccc5c(c4)CN4CCN(Cc6cc(CCC(=O)O)ccc6O)CC(=O)[O][Al-]([18F])([O]C(=O)C4)[O]5)CC3)cc12` (stereo partly drawn), the tissue uptake was 0.74 ± 0.14 %ID/g (BALB/c nude mice, U-87 MG xenograft, kidney; 1 h, blocking, added: DOTA-FAPI-04 40 nmol/mouse co-injected).
With `Cc1cc(C)n(CCN(CCN)CCCCCCNC(=O)[C@@H](N)Cc2c[nH]cn2)n1.[99Tc+].[C-]#[O+].[C-]#[O+].[C-]#[O+]` the tissue uptake was 0.16 ± 0.02 %IA/g (BALB/c nude mice, A549 xenograft, blood; intravenous, 24 h).
For `CCCC[C@H](NC(=O)CNC(=O)CNC(=O)[C@H](CCCCNC(=O)C(C)c1ccc(CC(C)C)cc1)NC(=O)CN1CCN(CC(=O)O)CCN(CC(=O)O)CCN(CC(=O)O)CC1)C(=O)N[C@H]1CC(=O)NCCCC[C@@H](C(N)=O)NC(=O)[C@H](Cc2c[nH]c3ccccc23)NC(=O)[C@H](CCCNC(=N)N)NC(=O)[C@@H](Cc2ccccc2)NC(=O)[C@H](Cc2c[nH]cn2)NC1=O` (stereo partly drawn) [lutetium-177 labelled], the tissue uptake was 0.07 ± 0.01 %ID/g (C57 mice, tumour-bearing, brain; 2 h).
For `CCCC[C@H](NC(=O)COCCOCCNC(=O)CN1CCN(CC(=O)O)CCN(CC(=O)O)CC1)C(=O)N[C@H]1CC(=O)NCCCC[C@@H](C(N)=O)NC(=O)[C@H](Cc2c[nH]c3ccccc23)NC(=O)[C@H](CCCNC(=N)N)NC(=O)[C@@H](Cc2ccccc2)NC(=O)[C@H](Cc2c[nH]cn2)NC1=O` [fluorine-18 labelled], the tissue uptake was 0.81 ± 0.36 %ID/g (C57 mice, B16/F10 melanoma, stomach; intravenous, 1 h, added: NDP-MSH 10 µg).
`COc1ccc2c(c1)C(C)(C)C(/C=C/C1=C(Oc3ccc(C(=O)NCCCCOc4cc(CN(Cc5ccccn5)Cc5ccccn5)cc(CN(Cc5ccccn5)Cc5ccccn5)c4)cc3)C(=C/C=C3/N(CCCCS(=O)(=O)[O-])c4ccc(OC)cc4C3(C)C)CCC1)=[N+]2CCCCS(=O)(=O)[O-].O=[N+]([O-])[O-].O=[N+]([O-])[O-].[99Tc+].[C-]#[O+].[C-]#[O+].[C-]#[O+].[Zn+2]` has a tissue uptake of 0.01 %ID/g and 0.03 %ID/g and 0.02 %ID/g (healthy BALB/c mice, brain; 12 h).
For `O=C(O)CCCOc1ccc([18F])cc1-c1cc(-c2ccccc2C(F)(F)F)n(-c2ccccc2)n1`, the tissue uptake was 2.75 ± 0.45 %ID/g (mice, small intestine; intravenous, 360 min).
For `CCCC[C@H](NC(=O)CCCCCCCNC(=O)CN1CCN(CC(=O)O)CCN(CC(=O)O)CC1)C(=O)N[C@H]1CC(=O)NCCCC[C@@H](C(N)=O)NC(=O)[C@H](Cc2c[nH]c3ccccc23)NC(=O)[C@H](CCCNC(=N)N)NC(=O)[C@@H](Cc2ccccc2)NC(=O)[C@H](Cc2c[nH]cn2)NC1=O` [fluorine-18 labelled], the tissue uptake was 2.67 ± 0.28 %ID/g (C57 mice B16-F10 melanoma, skin; intravenous, 0.37 MBq, 0.5 h).
The tissue uptake of `O=C([O-])CN1CCN(CC(=O)[O-])CCN(CC(=O)NC[C@H]2CC[C@H](C(=O)N[C@H](Cc3cnc4ccccc4c3)C(=O)NCCCC[C@H](NC(=O)N[C@@H](CCC(=O)O)C(=O)O)C(=O)O)CC2)CCN(CC(=O)[O-])CC1.[64Cu+2]` is reported as 6.05 %ID/g (ex vivo gamma counting; 22Rv1 tumour-bearing mice, stomach; intravenous, 0.74 MBq, 24 h post-injection).
`COc1ccc(Nc2nc(Nc3ccc(OCCOCC[18F])cc3)ncc2Br)cc1` has a tissue uptake of 6.13 ± 0.48 %ID/g (ICR mice, S180 tumour-bearing, lung; intravenous, 370 kBq, 15 min).
The tissue uptake of `O=C(NCC1OC2CCC=CCCC2O1)c1ccc([18F])nc1` (stereo not drawn) is reported as 5.8 ± 2 %ID/g (healthy female BALB/c nude mice, heart; intravenous, 7.4 MBq per mouse, 10 min).
For `Cc1cc(C)n(CCN(CCN)CCCCCCNC(=O)[C@@H](N)Cc2c[nH]c3ccccc23)n1.[99Tc+].[C-]#[O+].[C-]#[O+].[C-]#[O+]`, the tissue uptake was 1.6 ± 0.39 %IA/g (BALB/c nude mice, A549 xenograft, tumor; intravenous, 15 min).

Excerpt of the above:
For `CCCC[C@H](NC(=O)COCCOCCNC(=O)CN1CCN(CC(=O)O)CCN(CC(=O)O)CC1)C(=O)N[C@H]1CC(=O)NCCCC[C@@H](C(N)=O)NC(=O)[C@H](Cc2c[nH]c3ccccc23)NC(=O)[C@H](CCCNC(=N)N)NC(=O)[C@@H](Cc2ccccc2)NC(=O)[C@H](Cc2c[nH]cn2)NC1=O` [fluorine-18 labelled], the tissue uptake was 0.81 ± 0.36 %ID/g (C57 mice, B16/F10 melanoma, stomach; intravenous, 1 h, added: NDP-MSH 10 µg).
The tissue uptake of `CCCC[C@H](NC(=O)CNC(=O)CNC(=O)[C@H](CCCCNC(=O)[C@H](CC(=O)O)NC(=O)C(C)c1ccc(CC(C)C)cc1)NC(=O)CN1CCN(CC(=O)O)CCN(CC(=O)O)CCN(CC(=O)O)CC1)C(=O)N[C@H]1CC(=O)NCCCC[C@@H](C(N)=O)NC(=O)[C@H](Cc2c[nH]c3ccccc23)NC(=O)[C@H](CCCNC(=N)N)NC(=O)[C@@H](Cc2ccccc2)NC(=O)[C@H](Cc2c[nH]cn2)NC1=O` (stereo partly drawn) [lutetium-177 labelled] is reported as 0.29 ± 0.05 %ID/g (C57 mice, tumour-bearing, muscle; 2 h).
